# Measurements of several laboratories.
# Numbered parts are unrelated; each lists some results of a single study.

# Sample 1 — method: universal PBM; molecule type: double-stranded DNA, one strand shown; medium: in vitro; tested at: 600 nM; reading: higher = stronger binding
# Target: Sal-like protein 4, full length isoform A (SALL4, Homo sapiens, UniProt Q9UJQ4, residues 1-1053)
# Chain of UniProt Q9UJQ4 (whole entry, looked up): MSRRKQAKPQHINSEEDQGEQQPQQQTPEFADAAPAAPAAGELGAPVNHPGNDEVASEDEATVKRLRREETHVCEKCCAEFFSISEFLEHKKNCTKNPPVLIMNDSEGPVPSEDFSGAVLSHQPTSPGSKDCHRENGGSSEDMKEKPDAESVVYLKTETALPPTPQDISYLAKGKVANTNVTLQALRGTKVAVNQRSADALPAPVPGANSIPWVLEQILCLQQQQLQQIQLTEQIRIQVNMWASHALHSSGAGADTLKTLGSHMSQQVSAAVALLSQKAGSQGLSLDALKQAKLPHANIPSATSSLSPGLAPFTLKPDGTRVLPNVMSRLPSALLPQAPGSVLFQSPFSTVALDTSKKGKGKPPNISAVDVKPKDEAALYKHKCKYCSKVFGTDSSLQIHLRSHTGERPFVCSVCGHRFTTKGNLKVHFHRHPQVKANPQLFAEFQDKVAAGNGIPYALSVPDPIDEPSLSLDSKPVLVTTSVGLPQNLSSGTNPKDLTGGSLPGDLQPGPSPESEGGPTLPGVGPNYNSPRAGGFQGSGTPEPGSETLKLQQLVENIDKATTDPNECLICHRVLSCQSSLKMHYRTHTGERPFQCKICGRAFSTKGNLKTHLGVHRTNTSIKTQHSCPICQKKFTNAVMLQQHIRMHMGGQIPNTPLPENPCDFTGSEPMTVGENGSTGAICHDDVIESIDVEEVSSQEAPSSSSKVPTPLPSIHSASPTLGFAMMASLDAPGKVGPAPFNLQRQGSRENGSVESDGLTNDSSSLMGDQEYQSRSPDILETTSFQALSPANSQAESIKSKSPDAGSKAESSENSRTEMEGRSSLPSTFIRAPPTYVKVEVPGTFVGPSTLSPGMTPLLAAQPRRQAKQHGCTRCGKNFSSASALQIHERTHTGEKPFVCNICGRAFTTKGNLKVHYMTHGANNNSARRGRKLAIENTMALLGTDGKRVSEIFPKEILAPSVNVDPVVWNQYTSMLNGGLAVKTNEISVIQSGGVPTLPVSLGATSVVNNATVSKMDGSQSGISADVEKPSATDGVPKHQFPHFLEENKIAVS
# Setting: 8-mer, flanks averaged, mean of replicates
Strand,E-score
AGTCTTCC,-0.103
TAACTACA,0.176
GAGTATCC,-0.207
AATACGCC,0.0646
GATGAGGC,-0.116
AGGGGAAG,-0.256
AATTAAAA,0.311
AAGGGGTA,-0.0703
CTGCGGGC,-0.35
CGACTGAA,-0.155
TACCGGGA,-0.161
GACCGGGA,-0.322
AGTTCTTA,0.205
CTATGGCC,-0.16
ATTGATTC,0.183
CCTAAGCA,-0.104
AAAGTACT,0.101
CGACCCCC,-0.32
CCAACGCA,0.0105
GCCCAATA,0.0784
ACTTCGTA,0.0216
TCGCGCGA,-0.139
GATGAAAC,0.114
AGAGGCAA,0.00483
GCAACGAC,-0.199

# Sample 2 — method: RNA Bind-n-Seq; molecule type: RNA; medium: in vitro; tested at: not given; setting: RNA with constant flanks, ends assumed; baseline: input RNA pool; reading: higher = stronger binding
# Target: RING finger protein unkempt homolog, zinc fingers 1-6, GST-SBP tag (UNK, Homo sapiens, UniProt Q9C0B0, residues 30-357)
# Chain of UniProt Q9C0B0 (30-357, looked up): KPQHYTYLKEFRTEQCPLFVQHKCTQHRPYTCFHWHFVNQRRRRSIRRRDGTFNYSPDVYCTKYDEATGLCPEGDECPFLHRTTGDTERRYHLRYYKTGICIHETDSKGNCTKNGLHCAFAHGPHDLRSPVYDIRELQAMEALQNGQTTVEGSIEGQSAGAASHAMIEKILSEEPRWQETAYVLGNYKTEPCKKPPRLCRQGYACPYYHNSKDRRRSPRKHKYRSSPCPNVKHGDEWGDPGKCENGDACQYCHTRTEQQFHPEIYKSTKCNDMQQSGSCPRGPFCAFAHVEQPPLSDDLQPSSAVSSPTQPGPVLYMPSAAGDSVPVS
# Shared flanks, not repeated: GGGAGUUCUACAGUCCGACGAUC … CAACAGAGGAUUGAGCAUCA
Strand,bound/input enrichment [ratio]
AUGGAAGAUACCCUGAAGAGGAGGUUUUUCUAUGAUCAAGCUUUUGCUAUUUAUGGAGGUGUCCGUGGUCUGUAUGACUUUGGGCCAGUUGGCUGUGCUUUGAAGAACAAUAUUAUUCAG,0.145
AUCCAGUACUCCAAUCACAAAGAACUAAAGACAGAUAAUACAUUAAACCAACGUGCGCAAGCCGUUCUUCAAGCUGUGACAGCGGUCCAGACAGCAAAUACACCUCUUAGUGGCACCACA,0.509
GGCCAGGCUUUUGAGCUGAUCUUGAAGCCACCAUCUCCCAUCUCAGAAGCUCCACGAACUCCCGCUUCUCCAAAGAAGAAAGACCUGUCUCUGGAGGAGAUUCAGAAAAAGCUGGAGGCU,0.716
AUCUAUGCUAACCUCUCUGAUGAGAAGGCUUUCGUGUUUUCAGUUGCCUUGGCAGAAAUAAACCGAAAAAUUAUCAAUCAAAGACUUAUUCUCUGAUAUUUGUCUUCAAACUCUGUUGGU,0.126
AAAAAGCAGCUAAGGUUUUUACAAAGGGGAAAUGAGAACAAAAUGCUAGCUACAUCUGUACCGCUGAACUUUUAUAUGGUCCUCGCUGUCCUCUCUCUGCUCUGCUGUCCCCAGUGGUCA,0.182
GAUGACAUCCACCGCUCCCUCAUGGUUGACCAUGUGACUGAGGUCAGUCAGUGGAUGGCCGGAGUUAAAAGAUUAAUUGCAGAAAAGAGGAGUCUGUUUUCAGAGGAGGCAGCCAAUGAA,0.322
UUUGGAGGGAGUAGAACAGGACCCCUCUCUGGAAAGAAGUUUGGAAAUCCUGGGGAGAAACCCGUUAAAAAGAAGUGGAAUCUUGAUGAGCUGCCCAAAUUUGAGAAGAAUUUUUAUCAA,0.274
AUGGGCAGAAAGGCACAGGUUGUGCUGUGCUUUAGCCUGCAUUUGUCUAUCCAAACUUGCCCGUUUUAUCGGCUUUUUACUUUUUUGUACUUUAUUUUUCCUAUAAAGUCCUUUUCAGAA,0.207

# Sample 3 — method: RNA Bind-n-Seq; molecule type: RNA; medium: in vitro; tested at: 365 nM; baseline: no-protein control; reading: higher = stronger binding
# Target: RNA binding protein fox-1 homolog 2, RRM domain, GST-SBP tag (RBFOX2, Homo sapiens, UniProt O43251-10, residues 100-194)
# Setting: natural RNA segment, single round, ends assumed
# Shared flanks, not repeated: GGGAGUUCUACAGUCCGACGAUC … UGGAAUUCUCGGGUGCCAA
# Target sequence (chain): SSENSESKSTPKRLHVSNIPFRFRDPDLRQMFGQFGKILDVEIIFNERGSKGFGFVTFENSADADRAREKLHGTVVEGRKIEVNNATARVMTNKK
Strand,RBNS enrichment (R)
AAAAGGUGCUUGAUGUGGCAGCAGACUUCUUGGAGACUGAAGCACAGUGGCUGCCAGACGCCUGCACUGGAAAGGCGAACGAACUCUGUAUCUUCCAUCGGUGGCCAAGG,0.57
CCUGAAAGUAUCUGUAAGCAAUACUAGUAGGUAAGAUUUCACUGUGUGUACACAUACACAUUUGAGAUUGUAUGAGAACAUAUAAUCCAUAUGAUAUGUUGUACAUUUUA,0.277
UGUGUGUUUUUGGUUAAGUUUCUGGAAGAAUACAAUGCUUUUAUAUUGGAAGUAUAAGUUUUGAGUGGCAUUGUUGCCUUCUAACAAGCUCUCUGGGACUUUUAAAGUUU,0.633
UAACCAAAUUCUAGCAUCUCAGAGUACAGUGAAAAGCAGCAGUGUACUCAGUGAUAAAGUUAGCCAGCUCCAGAUAUGCAUAAAGAGUCUAAAGGUUUCUAAGUGUAUCU,0.794
UCCUUUUAGCAAUGCAACAUAUUAACAAAAUUGGGUGCAUUCAGGGUGGUAUGGCCAUAGACCAGAGCAACACAUUGAAAUGUAUACAGAUGUACUAGCUAAAGUCUCUU,0.379
UUAUAUACUUCCUCCGGGUCUCUAGGAACUCAGACUUUUUUAAACAUAGAUGUAAAUAAGGAACAGUUUGUCACACCUGACCCCAGUGAGUGGGGGGAAGGGCAGCUGUU,0.678
CAGCACUGCUGACUGCCUGCCUCUCUGACAUGUGGCUCUUGUUUCGUGGGGACUUUUCCUCUGGAAAAUACUUUGCCUUCAGGUAUUUGAUUGAAAUAUUUAAGAGUAUU,1.14
UAGGAAGAUGCACAUUGAUGUGGGGUUUUGAUGUGUCUGAUUUUGACUACUCAAGCUCUGUUUACAGAAGAAAAUUGAAUGGCGAGGGUGUGGCCAUAUGAACUGACUAG,1.19

# Sample 4 — method: RNA Bind-n-Seq; molecule type: RNA; medium: in vitro; tested at: 200 nM; setting: whole 134-nt RNA, ends assumed; added: 150 mM LiCl; baseline: input library; reading: higher = stronger binding; each molecule: 7-deaza-guanosine replaces G
# Target: Ras GTPase-activating protein-binding protein 1, full length (G3BP1, Homo sapiens, UniProt Q13283)
# Chain of UniProt Q13283 (whole entry, looked up): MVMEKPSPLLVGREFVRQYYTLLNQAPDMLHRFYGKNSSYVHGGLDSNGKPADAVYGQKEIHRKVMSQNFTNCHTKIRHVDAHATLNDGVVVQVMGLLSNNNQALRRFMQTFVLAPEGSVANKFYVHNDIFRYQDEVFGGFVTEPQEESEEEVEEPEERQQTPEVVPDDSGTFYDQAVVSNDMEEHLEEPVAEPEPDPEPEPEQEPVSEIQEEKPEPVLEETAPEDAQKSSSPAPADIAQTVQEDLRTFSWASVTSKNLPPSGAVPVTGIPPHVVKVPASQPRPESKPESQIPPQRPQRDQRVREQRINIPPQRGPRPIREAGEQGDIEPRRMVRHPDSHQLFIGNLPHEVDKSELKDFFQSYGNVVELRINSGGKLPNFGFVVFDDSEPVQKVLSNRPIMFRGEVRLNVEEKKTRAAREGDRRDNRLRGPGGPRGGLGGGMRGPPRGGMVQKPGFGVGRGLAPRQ
# Shared flanks, not repeated: GGGAGUUCUACAGUCCGACGAUC … UGGAAUUCUCGGGUGUCAAGG
Strand,log2 enrichment
UGCGGGCGGCUGAGACGCCGCCUGCCUGGCACCUAGGAGCGCAGCGGAGCCCCGACACCGCCGCCGCCGCCAUGGAGUCCGAGACCGAAC,0.452
UCCUGUGCUACACAUCGUAUGUACCGAAUCGGGGAAAAAGGGGAAAAAAAGGGGUGGGGAAAGUAUUAUGUUACGCCGUUCGGAUCUGCA,-0.135
UCCUGUGCUACACAUCGUAUGUACCGAAUCGGUUUUUUGGGUUUUUUGGUUUUUUGGGGAAAGUAUUAUGUUACGCCGUUCGGAUCUGCA,-0.223
ACCAUGCAGGUGGGCAUCUUUGGGAAGUGGGGCAAGGGGGGGAUAGGCAGGGGGGUAACACUUUGGGAACAGGUGGUCCCAGGUCGUUUC,0.236
CAAGUCCUGUGCUACACAUCGUAUGUACCGAAUCGGGGAAAGGGGAAAGGGAAAGGAAAGUAUUAUGUUACGCCGUUCGGAUCUGCACUU,-0.37
GUCCUGUGCUACACAUCGUAUGUACCGAAUCGGGAAAAAAGGAAAAAAGGGAAAAAAGGAAAGUAUUAUGUUACGCCGUUCGGAUCUGCA,-0.287
UCCUGUGCUACACAUCGUAUGUACCGAAUCGGGGUUUUUUUGGGGAGGGGUUUUUGGGGAAAGUAUUAUGUUACGCCGUUCGGAUCUGCA,0.757
ACCAUGCAGGUGGGCAUCUUUGGGAAGUGGGGCAAGGGGGGGAUACGGAGGGGGGUAACACUUUGGGAACAGGUGGUCCCAGGUCGUUUC,0.0286

# Sample 5 — method: protein binding microarray; molecule type: double-stranded DNA, one strand shown; medium: in vitro; tested at: not given; baseline: not given; reading: higher = stronger binding
# Target: Histone acetyltransferase KAT6A, winged helix 1, GST fusion (KAT6A, Homo sapiens, UniProt Q92794, residues 1-85)
# Setting: 8-mer, flanks averaged, mean of 2 arrays, mostly near background
# Construct (chain): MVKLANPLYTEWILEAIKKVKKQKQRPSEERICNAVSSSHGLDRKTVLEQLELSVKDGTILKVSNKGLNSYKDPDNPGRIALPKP
Strand,E-score
ATTTACAA,-0.148
ATCCAGAA,-0.216
AACCGGTT,0.133
AGTCTGCA,-0.149
CACTGAGG,-0.0584
AGGTGAAA,-0.159
GGCACTCA,-0.0357
AGAATACA,-0.072
CGAGCGGA,0.223
GAGATTAA,-0.00204
GCTTTGCC,-0.0801
CTACTTAC,-0.0588
ACAGGCTA,-0.21
CTCTACCC,-0.218
CGGCCGCC,0.47
CGAGAACA,0.0306
CAAACGTG,-0.134

# Some of these lines once more (sample 1):
Strand,E-score
TAACTACA,0.176
GAGTATCC,-0.207
AATACGCC,0.0646
GATGAGGC,-0.116
AGGGGAAG,-0.256
AATTAAAA,0.311
